Measured values collected from several papers.
Each numbered part is a random draw from the data of one study; scales do not carry over between parts.
UniProt P48729, sequence (whole entry, looked up): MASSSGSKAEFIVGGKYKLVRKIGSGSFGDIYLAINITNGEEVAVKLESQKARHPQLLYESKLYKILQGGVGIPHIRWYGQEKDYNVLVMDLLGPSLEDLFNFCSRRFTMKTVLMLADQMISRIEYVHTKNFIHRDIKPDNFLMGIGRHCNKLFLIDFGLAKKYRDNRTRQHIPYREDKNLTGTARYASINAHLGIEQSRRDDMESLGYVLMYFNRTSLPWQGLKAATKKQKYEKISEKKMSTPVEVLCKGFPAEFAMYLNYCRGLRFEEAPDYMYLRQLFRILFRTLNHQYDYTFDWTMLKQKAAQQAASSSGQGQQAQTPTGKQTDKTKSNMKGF
UniProt P49759, sequence (whole entry, looked up): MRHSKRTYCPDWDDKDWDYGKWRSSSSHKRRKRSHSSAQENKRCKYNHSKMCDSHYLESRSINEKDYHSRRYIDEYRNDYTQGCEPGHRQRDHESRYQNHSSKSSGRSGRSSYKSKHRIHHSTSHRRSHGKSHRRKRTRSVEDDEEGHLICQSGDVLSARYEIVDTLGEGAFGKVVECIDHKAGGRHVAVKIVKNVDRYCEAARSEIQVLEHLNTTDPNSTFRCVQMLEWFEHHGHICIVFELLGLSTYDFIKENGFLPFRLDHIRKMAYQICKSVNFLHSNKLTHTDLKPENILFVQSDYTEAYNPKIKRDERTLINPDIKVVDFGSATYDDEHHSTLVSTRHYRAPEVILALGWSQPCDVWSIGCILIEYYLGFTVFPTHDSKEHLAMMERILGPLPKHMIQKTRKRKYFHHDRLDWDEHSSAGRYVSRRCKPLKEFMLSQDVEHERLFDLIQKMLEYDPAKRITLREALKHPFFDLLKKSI
UniProt Q8TDC3, sequence (whole entry, looked up): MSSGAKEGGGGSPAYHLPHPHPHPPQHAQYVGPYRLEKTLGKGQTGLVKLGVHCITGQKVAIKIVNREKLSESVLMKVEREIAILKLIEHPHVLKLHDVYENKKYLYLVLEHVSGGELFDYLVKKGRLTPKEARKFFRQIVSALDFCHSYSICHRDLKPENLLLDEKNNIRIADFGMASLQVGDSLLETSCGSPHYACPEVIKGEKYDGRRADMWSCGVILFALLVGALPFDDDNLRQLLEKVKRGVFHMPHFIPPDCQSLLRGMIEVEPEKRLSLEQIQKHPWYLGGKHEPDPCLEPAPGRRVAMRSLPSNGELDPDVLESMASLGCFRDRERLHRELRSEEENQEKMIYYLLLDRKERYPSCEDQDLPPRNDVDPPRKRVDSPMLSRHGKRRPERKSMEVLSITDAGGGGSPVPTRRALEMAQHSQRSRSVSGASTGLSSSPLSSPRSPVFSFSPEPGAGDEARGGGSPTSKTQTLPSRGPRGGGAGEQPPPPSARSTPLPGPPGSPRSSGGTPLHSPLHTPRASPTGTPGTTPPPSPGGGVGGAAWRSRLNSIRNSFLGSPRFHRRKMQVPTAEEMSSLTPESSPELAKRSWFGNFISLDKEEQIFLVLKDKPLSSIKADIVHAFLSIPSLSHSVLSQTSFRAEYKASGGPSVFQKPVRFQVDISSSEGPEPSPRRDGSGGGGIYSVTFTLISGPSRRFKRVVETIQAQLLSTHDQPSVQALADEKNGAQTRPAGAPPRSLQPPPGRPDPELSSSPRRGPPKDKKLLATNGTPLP
UniProt Q00532, sequence (whole entry, looked up): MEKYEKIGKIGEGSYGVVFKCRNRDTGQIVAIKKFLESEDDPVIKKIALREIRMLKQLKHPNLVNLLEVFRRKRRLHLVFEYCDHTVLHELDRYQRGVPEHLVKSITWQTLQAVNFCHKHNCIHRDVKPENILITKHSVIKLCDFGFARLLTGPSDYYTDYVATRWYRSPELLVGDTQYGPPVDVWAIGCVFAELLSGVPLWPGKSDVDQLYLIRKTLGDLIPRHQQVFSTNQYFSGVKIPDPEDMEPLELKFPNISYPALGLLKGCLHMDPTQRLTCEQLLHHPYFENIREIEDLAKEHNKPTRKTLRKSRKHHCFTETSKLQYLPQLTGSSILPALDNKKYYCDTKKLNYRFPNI
UniProt Q13976, sequence (whole entry, looked up): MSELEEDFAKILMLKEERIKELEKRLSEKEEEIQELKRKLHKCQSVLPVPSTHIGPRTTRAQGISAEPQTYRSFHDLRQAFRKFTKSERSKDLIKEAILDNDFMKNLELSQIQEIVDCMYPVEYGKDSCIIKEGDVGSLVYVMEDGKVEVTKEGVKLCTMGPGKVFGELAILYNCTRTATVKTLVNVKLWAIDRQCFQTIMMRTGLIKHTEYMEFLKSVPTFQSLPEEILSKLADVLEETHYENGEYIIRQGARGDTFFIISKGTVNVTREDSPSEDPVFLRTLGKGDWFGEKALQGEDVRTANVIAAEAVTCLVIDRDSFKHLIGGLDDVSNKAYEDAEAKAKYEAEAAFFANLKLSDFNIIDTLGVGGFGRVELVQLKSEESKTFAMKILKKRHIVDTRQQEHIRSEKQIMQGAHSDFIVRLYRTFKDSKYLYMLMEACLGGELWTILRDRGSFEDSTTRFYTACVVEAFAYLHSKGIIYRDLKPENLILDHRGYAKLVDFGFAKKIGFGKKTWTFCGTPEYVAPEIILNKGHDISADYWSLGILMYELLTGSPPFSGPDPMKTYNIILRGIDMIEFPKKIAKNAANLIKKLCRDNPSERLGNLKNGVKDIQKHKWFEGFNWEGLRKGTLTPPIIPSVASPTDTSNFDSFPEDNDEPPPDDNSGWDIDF

Set 1
Target: Mitogen-activated protein kinase kinase kinase 2 (MAP3K2, Homo sapiens, UniProt Q9Y2U5)
UniProt Q9Y2U5, sequence (whole entry, looked up): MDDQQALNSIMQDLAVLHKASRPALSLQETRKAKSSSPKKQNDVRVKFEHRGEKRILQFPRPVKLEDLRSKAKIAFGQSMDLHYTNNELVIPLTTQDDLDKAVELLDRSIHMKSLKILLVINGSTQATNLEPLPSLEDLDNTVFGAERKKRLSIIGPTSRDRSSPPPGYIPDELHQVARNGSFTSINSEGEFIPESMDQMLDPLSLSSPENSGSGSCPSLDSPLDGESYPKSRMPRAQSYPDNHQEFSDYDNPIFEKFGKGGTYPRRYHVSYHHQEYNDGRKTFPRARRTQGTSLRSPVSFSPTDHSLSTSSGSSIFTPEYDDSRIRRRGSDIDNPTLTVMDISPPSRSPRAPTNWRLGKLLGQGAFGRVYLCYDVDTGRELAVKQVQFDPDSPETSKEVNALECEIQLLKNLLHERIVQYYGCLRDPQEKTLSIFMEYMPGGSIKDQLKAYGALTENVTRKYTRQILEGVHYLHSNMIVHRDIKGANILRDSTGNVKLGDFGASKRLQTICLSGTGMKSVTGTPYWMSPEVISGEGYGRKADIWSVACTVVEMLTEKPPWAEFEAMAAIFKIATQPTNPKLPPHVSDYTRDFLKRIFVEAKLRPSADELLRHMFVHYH
Effect on: enzyme activity
Mode: inhibitor
Tested at: 0.5 µM
Relative to: control
Compound | remaining activity
N#CC(c1ccnc(NCCc2cccnc2)n1)c1nc2ccccc2s1 (stereo not drawn) | 98.1%
Cc1cc(Nc2cc(N3CCN(C)CC3)nc(Sc3ccc(NC(=O)C4CC4)cc3)n2)[nH]n1 | 116%
Nc1nc(Nc2ccc(S(N)(=O)=O)cc2)nn1C(=S)Nc1c(F)cccc1F | -0.498%
CC(C)N(CCC(=O)c1ccc2ccccc2c1)Cc1ccccc1 | 107%
C[C@@H](N)[C@H]1CC[C@H](C(=O)Nc2ccncc2)CC1 | 104%
NC(=O)c1ccc(-c2nc(-c3ccc4c(c3)OCCO4)c(-c3ccccn3)[nH]2)cc1 | 98.8%
O=c1c(-c2ccc(F)cc2)c(-c2ccncc2)[nH]n1-c1ccc(Cl)cc1 | 98.9%
CCCCc1c(-c2ccc(O)cc2)[nH]c2nccnc12 | 77.2%
O=Nc1c(-c2c(O)[nH]c3cc(Br)ccc23)[nH]c2ccccc12 | 90.3%
FC(F)(F)c1ccc(/C=C/c2nc(COc3ccc(CCCCn4ccnn4)cc3)co2)cc1 | 102%
O=C1NC(=O)c2c1c1c3ccccc3[nH]c1c1[nH]c3cc(Br)ccc3c21 | 100%
O=C1c2ccccc2-c2nc3nnnn3nc21 | 83%
COc1ccc2c(c1)c(C1=C(c3c[nH]c4ccccc34)C(=O)NC1=O)cn2CCCN(C)C | 80.6%
CCCCc1c(-c2ccc(OC)cc2)[nH]c2nccnc12 | 90.9%
Oc1cccc(-c2nc(N3CCOCC3)c3oc4ncccc4c3n2)c1 | 103%
N#Cc1cnc2cnc(NCc3cccnc3)cc2c1Nc1ccc(F)c(Cl)c1 | 81.2%
Clc1ccc(Nc2nnc(Cc3ccncc3)c3ccccc23)cc1 | 126%
c1ccc(-c2n[nH]c3c2oc2ccccc23)cc1 | 85.9%

Set 2
Target: RNA binding protein fox-1 homolog 2, RRM domain, GST-SBP tag (RBFOX2, Homo sapiens, UniProt O43251-10, residues 100-194)
Method: RNA Bind-n-Seq
Form: RNA
Medium: in vitro
Tested at: 365 nM
Notes: natural RNA segment, single round, ends assumed
Relative to: no-protein control
Reading: higher = stronger binding
Constant ends, left off below: GGGAGUUCUACAGUCCGACGAUC … UGGAAUUCUCGGGUGCCAA
Strand | RBNS enrichment (R)
CAGGUGUAGUAGUGAACUUGAACAUUUGAAUGGGAAGGAAGCACUUCGCACAAUGGCAUUUGAACAAGGUGGCAAUCGGUUGGAGUAACAAACUCCCCCUUGCUGCUGCA | 3.45
AGUCUGAGUUUACCGUCUGAAUGUAAAGUUCCGUGUUGUCCGCUCACGACGGAAGUGAAGAAGAUACUGCAUUCAAGUGUUUUUUGUAAAAGUUUGUCAUGGUGAAUAAC | 0.483
UUUUGAGGAUAGGUGAGGCCUGAAUUCCUGUCCUUAUUUCUUCUGACCAGAAGUUGCACAGACAUGAUUUGUGCUGGAGUCAAGGGGCAGAACAGAAGAAUCUGACAGGC | 0.525
AGGUCAGGAUGUCUGCAGUUGGAGAUGUAAAUAUUUUGUACAGUAAAUAAAAUGCCUACAAUAAUAAGAGCUAAAUGAGUGUUUGAGUGGGGGGUGGGACAAUGCUUACA | 1.66
CAGGCAGGAUUGGUUUUUUUGUGUCUUGGCAAGUGGAGCAUAUUUAACAUACAGGCAUGGGAAUCCUGCCUCUUAGCUUUUCCCACCCUCUUGUCUCACCAAGUUUUUUC | 0.614
UCUUCACUGUCUGUUGUUUACCUACCGUAGCUUUUUACCGUUCACUUCCCCUUCCAACUAUGUCCAGAUGUGCAGGCUCCUCCUCUCUGGACUUUCUCCAAAGGCACUGA | 0.904
AUUUGAUGUGUUGCCUGGCAGGAUACUGCAAAGAACAUGGUUUAUUUUAAAAUUUAUAAACAAGUCACUUAAAUGCCAGUUGUCUGAAAAAUCUUAUAAGGUUUUACCCU | 1.47
AGGAGGCGAACCCAAGUGUGUGUCUCCUCUGAAUGUCUCAGAACUCAGUUGUGAAGGAGCAGGAGGUUUAGACGAUGAAGAAAUUCUUGACUGUUUUUCAGUUGCUAUAU | 0.795

Set 3
Target: Prothrombin, mature alpha-thrombin (F2, Homo sapiens, UniProt P00734)
Method: aptamer microarray, sandwich
Form: DNA with 2'F-ANA
Medium: in vitro
Tested at: 200 nM
Notes: whole 15-mer aptamer, many near background
With: Cy3 exosite-II aptamer, 400 nM
Reading: higher = stronger binding
Strand: GGTTGGTGTGGTTGG
Modification | mean fluorescence intensity [a.u.]
2'F-ANA at 3 4 5 10 11 12 13 15 | 53.6
2'F-ANA at 1 3 5 6 10 11 12 14 15 | 46.9
2'F-ANA at 1 2 3 12 13 | 414
2'F-ANA at 1 3 4 5 7 9 10 11 12 13 15 | 47.6
2'F-ANA at 1 3 4 6 7 9 10 11 12 13 15 | 65.8
2'F-ANA at 1 5 6 7 9 14 | 49.7
2'F-ANA at 2 6 7 8 9 12 13 14 15 | 154
2'F-ANA at 1 4 8 9 10 12 13 | 51.4

Set 4
SMILES: Cc1cc(NC(=O)c2cccc(S(F)(F)(F)(F)F)c2)cc(-n2ccn3nc(-c4cccnc4)cc23)c1
Effect on: cell-free assay
Method: competition with immobilised ligand
Tested at: 1 µM
target | remaining binding [%]
CLK1 (Homo sapiens, UniProt P49759) | 100
PRKG1 (Homo sapiens, UniProt Q13976) | 100
MET (Homo sapiens, UniProt P08581) | 77.3
CSNK1A1 (Homo sapiens, UniProt P48729) | 50.7
BRSK1 (Homo sapiens, UniProt Q8TDC3) | 100
CDKL1 (Homo sapiens, UniProt Q00532) | 84.5

Further values, each from its own experiment
Target: SMN1, full length (human, UniProt Q16637, residues 1-294)
UniProt Q16637, sequence (whole entry, looked up): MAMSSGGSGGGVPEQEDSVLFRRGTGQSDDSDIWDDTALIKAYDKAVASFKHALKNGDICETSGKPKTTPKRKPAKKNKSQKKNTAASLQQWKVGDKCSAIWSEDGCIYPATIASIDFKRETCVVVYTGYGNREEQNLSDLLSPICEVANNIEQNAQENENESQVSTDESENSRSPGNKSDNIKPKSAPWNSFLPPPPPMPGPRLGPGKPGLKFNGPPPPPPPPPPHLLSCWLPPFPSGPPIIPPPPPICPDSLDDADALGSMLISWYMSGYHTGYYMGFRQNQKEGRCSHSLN
Method: nitrocellulose filter binding
Form: RNA
Medium: in vitro
Tested at: 100 nM
Notes: whole RNA, constant flanks, single concentration, ends assumed
Relative to: round 9 selected pool
Reading: higher = stronger binding
Strand | relative RNA binding
GGGCUCACCACGCACGUGCGUUCAUCUUGUCUCGUACUGGCCUCACCACGGCAAGCU | 71 % of pool
GGGCUCACCACGCACAGUACAAGGACGAGGAUAUGUGUGGCCUCACCACGGCAAGCU | 27 % of pool

Excerpt of the above (set 4):
target | remaining binding [%]
CLK1 (Homo sapiens, UniProt P49759) | 100
PRKG1 (Homo sapiens, UniProt Q13976) | 100
MET (Homo sapiens, UniProt P08581) | 77.3
